# Published values from different studies.
# Protocols differ between the studies behind these lines. Several values in a cell are separate wells, animals, samples, runs or records. ± marks the error that the study gave.
# APP amyloid-beta aggregates: Amyloid-beta precursor protein, amyloid-beta aggregates (APP, Homo sapiens, UniProt P05067)
# APP Aβ42 aggregates: Amyloid-beta precursor protein, Aβ42 aggregates (APP, Homo sapiens, UniProt P05067)
# APP: Amyloid-beta precursor protein (APP, Homo sapiens, UniProt P05067)
# APP Aβ40 fibrils: Amyloid-beta precursor protein, Aβ40 fibrils (APP, Homo sapiens, UniProt P05067)
# APP fibril: Amyloid-beta precursor protein, fibril (APP, Homo sapiens, UniProt P05067)
# APP amyloid-beta: Amyloid-beta precursor protein, amyloid-beta (APP, Homo sapiens, UniProt P05067)
SMILES,target,assay,test system,setting,quantity,result
COc1cc(C=CC(=O)CC(=O)C=Cc2ccc(OCC(=O)O)c(OC)c2)ccc1O,APP amyloid-beta aggregates,"binding, thioflavin T competition",,,IC50,310 nM
COCCOCCOCCOC(=O)C(C#N)=Cc1ccc2cc(N3CCCCC3)ccc2c1,APP amyloid-beta aggregates,"IgG-amyloid beta binding, inhibitor, ELISA",,"50 % inhibition, together with: aggregated amyloid beta",IC50,74000 nM and 74300 nM
N#C/C(=C\c1ccc2cc(N3CCCCC3)ccc2c1)C(=O)OCC(O)CO (stereo not shown),APP Aβ42 aggregates,"binding, fluorescence titration",,"5% DMSO in water, together with: aggregated Abeta42 5 µM",Kd,1600 ± 200 nM
O=C(C=Cc1ccc(O)c(OC(F)(F)F)c1)C1=C(C=Cc2ccc(O)c(OC(F)(F)F)c2)OCC1,APP amyloid-beta aggregates,"binding, thioflavin T competition",,,IC50,250 nM
COCCOCCn1c2ccc(F)cc2c2cc(/C=C/c3cc[n+](CCO)c4ccccc34)ccc21,APP,"amyloid aggregation, inhibitor, fluorescence",,,IC50,3400 nM
COCCOCCOCCOC(=O)C(C#N)=Cc1ccc(N(C)C)cc1,APP Aβ42 aggregates,"binding, fluorescence titration",,together with: pre-aggregated Aβ(1-42) 5.0 µM,Kd,2600 nM
OC(Cc1cc(-c2ccc(C(O)C(F)(F)F)s2)sc1-c1ccc(-c2sc(-c3ccc(C(O)C(F)(F)F)s3)cc2CC(O)C(F)(F)F)s1)C(F)(F)F (stereo not shown),"Amyloid-beta precursor protein, Aβ40/Aβ42 aggregates (APP, Homo sapiens, UniProt P05067)","Aβ40 Aβ42 fibril binding, fluorescence",,"24 h aggregation, Aβ40:Aβ42 9:1",Kd,750 nM
COc1cc(-c2nc3ccccc3s2)cc(CN2Cc3cccc(n3)CN(CC(=O)O)Cc3cccc(n3)C2)c1O,APP Aβ40 fibrils,"amyloid-β fibril binding, ThT fluorescence competition",,"Aβ 2 µM, together with: ThT 1 µM",Ki,320 ± 40 nM
COc1ccc(C(=O)Nc2cc(-c3ccc(I)cc3)no2)cc1 [iodine-125 labelled],"Amyloid-beta precursor protein, Aβ42 fibrils (APP, Homo sapiens, UniProt P05067)","radioligand, radioligand saturation binding",,APP 100 nM,Kd,2.47 ± 1.3 nM
CNc1ccc(-c2nc3ccc(OCCCCCN4CCN5CCN(CC4)CC(=O)[O][Al]([F])[O]C(=O)C5)cc3s2)cc1,APP fibril,"ligand displacement, radioligand",,,Ki,40.9 nM
COc1ccc(-c2cc(=O)c3c(O)cc(O)c(-c4cc(-c5cc(=O)c6c(O)cc(OC)cc6o5)ccc4OC)c3o2)cc1,APP,"amyloid aggregation, inhibitor, fluorescence",,,IC50,2280 nM
COc1cc(OC)c2c(O)c3c(=O)cc(C)oc3c(-c3c(O)cc4cc5c(c(O)c4c3OC)C(=O)CC(C)(O)O5)c2c1 (stereo not shown),APP,"amyloid aggregation, inhibitor, fluorescence",,,IC50,8100 nM
COc1cc(-c2nc3ccccc3s2)cc(CN2CCN(C)CCN(C)CC2)c1O,APP Aβ40 fibrils,"amyloid-β fibril binding, ThT fluorescence competition",,"Aβ 2 µM, together with: ThT 1 µM",Ki,170 ± 50 nM
CC(C)c1noc(-c2ccc(-n3cnc(C(=O)NCc4ccco4)c3)nc2)n1,APP amyloid-beta,"binding, competition binding",Alzheimer brain homogenate,together with: [3H]PiB,Ki,> 1000 nM
COc1cc(-c2nc3ccccc3s2)cc(CN2Cc3cccc(n3)CNCc3cccc(n3)C2)c1O,APP Aβ40 fibrils,"Aβ fibril binding, ThT fluorescence competition",,"Cu complex of ligand, Aβ 2 µM, together with: thioflavin T 1 µM",Ki,275 ± 20 nM
COc1cc(-c2nc3ccccc3s2)cc(CN(Cc2ccccn2)Cc2ccccn2)c1O,APP Aβ40 fibrils,"binding, ThT competition",Aβ fibrils,"Aβ 5 µM, together with: ThT 2 µM",Ki,180 ± 25 nM
CN(C)c1ccc(C=C(C#N)C(=O)OCC(O)CO)cc1 (stereo not shown),APP Aβ42 aggregates,"binding, fluorescence titration",,together with: pre-aggregated Aβ(1-42) 5.0 µM,Kd,3300 nM
CNc1ccc(-c2nc3ccc(OCCCN4CCN5CCN(CC4)CC(=O)[O][Al]([F])[O]C(=O)C5)cc3s2)cc1,APP fibril,"ligand displacement, radioligand",,,Ki,124 nM
CN(C)c1ccc(-c2ccc3cc(OCC(O)CF)ccc3n2)cc1 (stereo not shown),APP,"ligand displacement, radioligand",,,Ki,26.6 nM
O=C(O)c1ccc2[nH]cc(-c3ccc4cc(O)ccc4c3)c2c1,"Amyloid-beta precursor protein, amyloid-beta 1-40 peptide (APP, Homo sapiens, UniProt P05067)","Aβ1-42 oligomerization, inhibitor, ELISA",,,IC50,9000 nM
CC(C)c1noc(-c2ccc(-n3cnc(C(=O)NCc4cccs4)c3)nc2)n1,APP amyloid-beta,"binding, competition binding",Alzheimer brain homogenate,together with: [3H]PiB,Ki,> 1000 nM
COc1cc2c(c(O)c1O)C(=O)CC(c1ccccc1)O2 (stereo not shown),APP,,,,IC50,14000 ± 1200 nM
CN1CCN(C)CCN(Cc2c(O)ccc3nc(-c4ccc(N(C)C)cc4)sc23)CC1,APP Aβ40 fibrils,"binding to Aβ aggregates, ThT competition",,"Aβ 5 µM, together with: ThT 2 µM",Ki,11 ± 7 nM
CCN(CC)c1ccc(C=C(C#N)C(=O)OCCOCCOCCOC)cc1,APP Aβ42 aggregates,"binding, fluorescence titration",,together with: pre-aggregated Aβ(1-42) 5.0 µM,Kd,4800 nM
COc1ccc(-c2cc(=O)c3c(O)cc(O)c(-c4cc(-c5cc(=O)c6c(O)cc(O)cc6o5)ccc4O)c3o2)cc1,APP,"amyloid aggregation, inhibitor, fluorescence",,,IC50,190 nM
COCCOCCOCCOC(=O)/C(C#N)=C/c1ccc2cc(N3CCOCC3)ccc2c1,APP Aβ42 aggregates,"binding, fluorescence titration",,"5% DMSO in water, together with: aggregated Abeta42 5 µM",Kd,13800 ± 3100 nM
COc1cc(O)cc2cc3oc(C)cc(=O)c3c(O)c12,APP,"amyloid aggregation, inhibitor, fluorescence",,,IC50,2800 nM
COCCOCCOCCOC(=O)C(C#N)=Cc1ccc(C=Cc2ccc(N(C)C)cc2)cc1,APP Aβ42 aggregates,"binding, fluorescence titration",,together with: pre-aggregated Aβ(1-42) 5.0 µM,Kd,1400 nM

# A few entries again:
SMILES,target,assay,test system,setting,quantity,result
CN1CCN(C)CCN(Cc2c(O)ccc3nc(-c4ccc(N(C)C)cc4)sc23)CC1,APP Aβ40 fibrils,"binding to Aβ aggregates, ThT competition",,"Aβ 5 µM, together with: ThT 2 µM",Ki,11 ± 7 nM
COc1cc(O)cc2cc3oc(C)cc(=O)c3c(O)c12,APP,"amyloid aggregation, inhibitor, fluorescence",,,IC50,2800 nM
COc1cc2c(c(O)c1O)C(=O)CC(c1ccccc1)O2 (stereo not shown),APP,,,,IC50,14000 ± 1200 nM
COc1ccc(-c2cc(=O)c3c(O)cc(O)c(-c4cc(-c5cc(=O)c6c(O)cc(O)cc6o5)ccc4O)c3o2)cc1,APP,"amyloid aggregation, inhibitor, fluorescence",,,IC50,190 nM
